# Experimental data from different studies.
# Compare with care: the assays were run in different laboratories. ± marks the error that the study gave.
# OPRM1: Mu-type opioid receptor (OPRM1, Homo sapiens, UniProt P35372)
# UniProt P35372, sequence (whole entry, unmodified, looked up): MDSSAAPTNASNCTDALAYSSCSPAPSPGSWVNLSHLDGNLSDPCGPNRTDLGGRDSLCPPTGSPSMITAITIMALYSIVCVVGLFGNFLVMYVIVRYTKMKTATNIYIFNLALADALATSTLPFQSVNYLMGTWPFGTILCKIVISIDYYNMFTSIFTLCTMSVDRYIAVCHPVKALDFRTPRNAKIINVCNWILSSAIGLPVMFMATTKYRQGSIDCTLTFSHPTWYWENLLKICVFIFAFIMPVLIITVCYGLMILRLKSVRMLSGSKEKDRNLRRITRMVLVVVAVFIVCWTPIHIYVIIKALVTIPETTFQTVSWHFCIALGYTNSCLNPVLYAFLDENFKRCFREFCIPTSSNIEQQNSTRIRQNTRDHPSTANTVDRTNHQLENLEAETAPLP
Structure (SMILES),target or system,test,system,conditions,endpoint,value
CC(Cc1ccccc1)NCCC(c1ccccc1)c1ccccc1 (centres unmarked),OPRM1,"radioligand binding, inhibitor",CHO-K1,together with: [3H]naloxone,IC50,1.79 µM
Oc1cccc(N2C3CCC2CN(CCc2ccccc2)C3)c1,OPRM1,,,,EC50,0.00027 ± 6e-05 µM
Cn1cncc1[C@@](N)(c1ccc(Cl)cc1)c1ccc2c(c1)c(-c1cccc(Cl)c1)cc(=O)n2C,human coronavirus OC43,virus-induced cell killing,MRC-5,maximum over 10 doses,maximum inhibition,0%
CC(C(O)c1ccc(O)cc1)N1CCC(Cc2ccccc2)CC1 (centres unmarked),OPRM1,binding,,,Ki,1.42 µM
CC[C@@H](c1cccc(O)c1)[C@@H](C)CN(C)C,"Mu-type opioid receptor (OPRM1, Homo sapiens, UniProt P35372, N40D)",agonist,human cells,"N40D receptor, no receptor depletion",EC50,0.398 µM
COc1cc(Nc2ncc(F)c(Nc3ccc4c(n3)NC(=O)C(C)(C)O4)n2)cc(OC)c1OC,OPRM1,,,,IC50,> 10 µM
CC(NCCc1ccc(O)cc1)C(O)c1ccc(O)cc1 (centres unmarked),OPRM1,"receptor activation, agonist",,,EC50,8.1 µM
C[C@H](NC(=O)Cc1cc(F)cc(F)c1)C(=O)N[C@H](C(=O)OC(C)(C)C)c1ccccc1,human coronavirus OC43,virus-induced cell killing,MRC-5,maximum over 10 doses,maximum inhibition,1.47%
CC[C@@H]1CN2CCc3c([nH]c4cccc(OC)c34)[C@@H]2C[C@@H]1C(=CO)C(=O)OC,OPRM1,"G protein activation, agonist, BRET",human cells,,EC50,0.995 ± 0.344 µM
COc1cc(C(=O)N2CC[C@@H](O)[C@@H](N)C2)cc2nc(-c3cc4ccccc4n3CC3CC3)n(C)c12,OPRM1,"agonist, GTPγS binding",,,EC50,> 100 µM
Oc1cccc([C@@]23CCC[C@@H](C2)N(CCc2ccccc2)C[C@H]3O)c1 (relative stereo),OPRM1,antagonist,,,Kb,0.012 ± 0.002 µM

# Repeated from above:
Structure (SMILES),target or system,test,system,conditions,endpoint,value
COc1cc(Nc2ncc(F)c(Nc3ccc4c(n3)NC(=O)C(C)(C)O4)n2)cc(OC)c1OC,OPRM1,,,,IC50,> 10 µM
CC(NCCc1ccc(O)cc1)C(O)c1ccc(O)cc1 (centres unmarked),OPRM1,"receptor activation, agonist",,,EC50,8.1 µM
